# Measurements of several laboratories.
# Numbers after ± are the reported error.
# Cell line: A549
Structure (SMILES),assay,setting,IC50
O=C1Nc2ccccc2C1=NN=c1sc(-c2cccs2)nn1-c1ccc([N+](=O)[O-])cc1,cell growth or viability,,23.2 µM
COc1cc2ncnc(Nc3ccc(Cl)cc3F)c2cc1OC,"cell growth or viability, resazurin",5 days,> 10 µM
CCn1[c](=[Au-2][Cl])n(CC)c2ccccc21,"cell growth or viability, crystal violet",72 h,10 µM
Cc1cc(C)c(C2C3CCCN3C3(C(=O)Nc4ccccc43)C2C(=O)c2ccc(F)cc2)c(C)c1 (stereo not drawn),"cell growth or viability, MTT",48 h,17.4 µM
COc1ccc(CNC(=O)Cn2cc(COc3ncnc4[nH]cnc34)nn2)cc1,"cell growth or viability, MTT",,14.2 µM
CN(C)C/C=C/C(=O)Nc1cc2c(Nc3ccc(F)c(Cl)c3)ncnc2cc1O[C@H]1CCOC1,"cell growth or viability, MTT",48 h,8.09 µM
Cc1cccc(C(=O)C2C(c3c(C)cc(C)cc3C)CN(C)C23C(=O)Nc2ccccc23)c1 (stereo not drawn),"cell growth or viability, MTT",48 h,3.5 µM
COc1ccc2[nH]c(C(=O)Nc3cccc(-c4nc(N)[nH]c4C(=O)c4ccccc4)c3)cc2c1,"cell growth or viability, resazurin",72 h,21.1 µM
O=c1c(O)c(-c2ccccc2)oc2cc3ccccc3cc12,"cell viability, MTT","visible light, BSA 0.6 mM",95.4 ± 3.91 µM
Nc1nc(-c2cccc(NC(=O)c3cc4cc(F)ccc4[nH]3)c2)c(C(=O)c2ccccc2)[nH]1,"cell growth or viability, resazurin",72 h,29.1 µM
Cc1cc(C)c(C2CN(C)C3(C(=O)Nc4ccccc43)C2C(=O)c2ccccc2)c(C)c1 (stereo not drawn),"cell growth or viability, MTT",,< 10 µM
CC(=O)Nc1ccc(/C=C/c2nc3ccc([N+](=O)[O-])cc3nc2/C=C/c2ccc(NC(C)=O)cc2)cc1,"cell growth or viability, MTT",72 h,> 100 µM
Cc1cc(C)c(C2C3CCCN3C3(C(=O)Nc4ccccc43)C2C(=O)c2ccc(Cl)cc2)c(C)c1 (stereo not drawn),"cell growth or viability, MTT",,< 10 µM
C/C(=N/NC(=O)c1cn(-c2ccccc2)nc1-c1ccc(Cl)cc1)c1c(O)cc(C)oc1=O,"cell growth or viability, MTT",48 h,31.2 µM
Cc1cc(C)c(C2CN(C)C3(C(=O)Nc4ccccc43)C2C(=O)c2ccc(Cl)cc2)c(C)c1 (stereo not drawn),"cell growth or viability, MTT",24 h,> 100 µM
Brc1ccc2nc(/C=C/c3ccco3)c(/C=C/c3ccco3)nc2c1,"cell growth or viability, MTT",72 h,54.9 µM
CC(C=NN=C(N)[S-])=NN=C(N)[S-].O=[N+]([O-])[O-].[Co+3].c1c[nH]cn1.c1c[nH]cn1,"cell viability, MTT","24 h then 48 h recovery, normoxia",~4.2 µM
CCC(O)CC(=O)O[C@@H]1C[C@@H]2[C@@]3(C)CCC[C@](C)(CC)[C@@H]3CC[C@@]2(C)[C@@H]2C[C@@H](O)C3=C(C(=O)O[C@H]3C)[C@@]12C (stereo partly drawn),"cell growth or viability, CCK-8",24 h,≤ 25 µM
CC(=NNC(N)=S)C(C)=NNC(N)=S,"cell viability, MTT","24 h then 48 h recovery, normoxia",16.4 ± 0.87 µM
O=[N+]([O-])c1ccc2nc(/C=C/c3ccc(Cl)cc3)c(/C=C/c3ccc(Cl)cc3)nc2c1,"cell growth or viability, MTT",72 h,> 100 µM
C=CCc1ccc(O)c(-c2ccc(O)c(CC=C)c2)c1,"cell proliferation, MTS","24 h, added: 10 µM BLM",10 µM
C/C(=N/NC(=O)c1cn(-c2ccccc2)nc1-c1ccc(F)cc1)c1c(O)cc(C)oc1=O,"cell growth or viability, MTT",48 h,68.5 µM
Cc1cncc(NC(=O)Cn2cc(COc3ncnc4[nH]cnc34)nn2)c1,"cell growth or viability, MTT",,5.2 µM
Nc1nc(-c2cccc(NC(=O)c3ccc4cccc(O)c4n3)c2)c(C(=O)c2ccccc2)[nH]1,"cell growth or viability, resazurin",72 h,28.8 µM
Cn1nnc2c(C(N)=O)ncn2c1=O,"cell proliferation, MTS","72 h, added: 10 µM HNL",79.4 µM
CCn1c[n+](CC)c2ccc(C(=O)OC)cc21,"cell growth or viability, crystal violet",72 h,51.4 µM
Brc1ccc2nc(/C=C/c3cccs3)c(/C=C/c3cccs3)nc2c1,"cell growth or viability, MTT",72 h,12 µM
CCOC(=O)c1[nH]c(N)nc1-c1cccc(NC(=O)c2cc3cc(OC)ccc3[nH]2)c1,"cell growth or viability, resazurin",72 h,27.6 µM
CC(=NN=c1sc(-c2cccs2)nn1-c1ccc([N+](=O)[O-])cc1)c1ccccc1,cell growth or viability,,32.1 µM
O=[N+]([O-])c1ccc(/C=C/c2nc3ccc(Br)cc3nc2/C=C/c2ccc([N+](=O)[O-])cc2)cc1,"cell growth or viability, MTT",72 h,> 100 µM
Cc1ccc(C(=O)C2C(c3c(C)cc(C)cc3C)CN(C)C23C(=O)Nc2ccccc23)cc1 (stereo not drawn),"cell growth or viability, MTT",48 h,5.5 µM
C=CC1=C(C)c2cc3[nH]c(cc4nc(cc5[nH]c(cc1n2)c(C)c5CCC(=O)O)C(CCC(=O)O)=C4C)c(C)c3C=C,"cell growth or viability, resazurin",dark,> 100 µM
COc1cccc2c1C(=O)c1c(O)c3c(c(O)c1C2=O)C[C@@](O)(C(=O)CO)C[C@@H]3O[C@H]1C[C@H](N)[C@H](O)[C@H](C)O1,"cell growth or viability, MTT",72 h,3 µM
Brc1ccc2nc(/C=C/c3ccccc3)c(/C=C/c3ccccc3)nc2c1,"cell growth or viability, MTT",72 h,> 100 µM
Cc1cccc(C(=O)C2C(c3c(C)cc(C)cc3C)C3CCCN3C23C(=O)Nc2ccccc23)c1 (stereo not drawn),"cell growth or viability, MTT",48 h,7.8 µM
O=C(Cn1cc(COc2ncnc3[nH]cnc23)nn1)NCc1ccc(O)cc1,"cell growth or viability, MTT",,> 100 µM
COc1ccc(/C=C/c2nc3ccc([N+](=O)[O-])cc3nc2/C=C/c2ccc(OC)cc2)cc1,"cell growth or viability, MTT",72 h,> 100 µM
Cc1ccc(C(=O)C2C(c3c(C)cc(C)cc3C)C3CCCN3C23C(=O)Nc2ccccc23)cc1 (stereo not drawn),"cell growth or viability, MTT",24 h,15.7 µM
CC(=NN=C(N)[S-])C(C)=NN=C(N)[S-].NCc1ccccc1.NCc1ccccc1.O=[N+]([O-])[O-].[Co+3],"cell viability, MTT","24 h hypoxic, 48 h normoxic, hypoxic treatment",> 500 µM
CN1CCC2(CC1)C/C(=N\N=C\c1ccc(Cl)cc1)c1ccccc1O2,"cell growth or viability, MTT",48 h,2.03 µM
Fc1ccc(/C=C/c2nc3ccc(Br)cc3nc2/C=C/c2ccc(F)cc2)cc1,"cell growth or viability, MTT",72 h,> 100 µM
[NH2][Pt]12([NH2])([O]C(=O)CC(=O)[O]1)[O]C(=O)CC(=O)[O]2,"cell viability, MTT",96 h,> 200 µM

# Excerpt of the above:
Structure (SMILES),assay,setting,IC50
Cc1cc(C)c(C2C3CCCN3C3(C(=O)Nc4ccccc43)C2C(=O)c2ccc(F)cc2)c(C)c1 (stereo not drawn),"cell growth or viability, MTT",48 h,17.4 µM
C/C(=N/NC(=O)c1cn(-c2ccccc2)nc1-c1ccc(F)cc1)c1c(O)cc(C)oc1=O,"cell growth or viability, MTT",48 h,68.5 µM
Cn1nnc2c(C(N)=O)ncn2c1=O,"cell proliferation, MTS","72 h, added: 10 µM HNL",79.4 µM
O=[N+]([O-])c1ccc(/C=C/c2nc3ccc(Br)cc3nc2/C=C/c2ccc([N+](=O)[O-])cc2)cc1,"cell growth or viability, MTT",72 h,> 100 µM
